Measured values pooled from the literature.
Numbered parts are unrelated; each lists some results of a single study.
Chain of UniProt Q9UK32 (whole entry, looked up): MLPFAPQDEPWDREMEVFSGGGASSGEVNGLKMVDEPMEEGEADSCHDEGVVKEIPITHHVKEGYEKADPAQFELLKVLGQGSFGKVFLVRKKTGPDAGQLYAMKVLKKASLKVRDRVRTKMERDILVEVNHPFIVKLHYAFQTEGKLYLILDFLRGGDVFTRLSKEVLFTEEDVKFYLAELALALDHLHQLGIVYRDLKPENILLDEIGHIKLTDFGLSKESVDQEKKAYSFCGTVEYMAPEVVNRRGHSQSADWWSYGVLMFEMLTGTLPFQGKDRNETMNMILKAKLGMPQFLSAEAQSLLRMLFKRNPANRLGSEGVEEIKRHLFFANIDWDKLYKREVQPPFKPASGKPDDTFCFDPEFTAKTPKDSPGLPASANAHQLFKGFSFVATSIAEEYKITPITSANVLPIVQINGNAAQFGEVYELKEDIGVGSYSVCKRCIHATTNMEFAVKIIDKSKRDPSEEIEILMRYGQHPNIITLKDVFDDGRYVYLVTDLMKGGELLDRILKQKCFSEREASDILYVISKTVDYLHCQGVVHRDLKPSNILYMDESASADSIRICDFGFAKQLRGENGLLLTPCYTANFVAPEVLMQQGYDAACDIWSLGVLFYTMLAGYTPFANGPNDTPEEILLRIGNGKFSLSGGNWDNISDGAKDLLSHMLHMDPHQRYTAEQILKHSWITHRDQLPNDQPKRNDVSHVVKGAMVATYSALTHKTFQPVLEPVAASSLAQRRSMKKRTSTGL
Chain of UniProt O00238 (whole entry, looked up): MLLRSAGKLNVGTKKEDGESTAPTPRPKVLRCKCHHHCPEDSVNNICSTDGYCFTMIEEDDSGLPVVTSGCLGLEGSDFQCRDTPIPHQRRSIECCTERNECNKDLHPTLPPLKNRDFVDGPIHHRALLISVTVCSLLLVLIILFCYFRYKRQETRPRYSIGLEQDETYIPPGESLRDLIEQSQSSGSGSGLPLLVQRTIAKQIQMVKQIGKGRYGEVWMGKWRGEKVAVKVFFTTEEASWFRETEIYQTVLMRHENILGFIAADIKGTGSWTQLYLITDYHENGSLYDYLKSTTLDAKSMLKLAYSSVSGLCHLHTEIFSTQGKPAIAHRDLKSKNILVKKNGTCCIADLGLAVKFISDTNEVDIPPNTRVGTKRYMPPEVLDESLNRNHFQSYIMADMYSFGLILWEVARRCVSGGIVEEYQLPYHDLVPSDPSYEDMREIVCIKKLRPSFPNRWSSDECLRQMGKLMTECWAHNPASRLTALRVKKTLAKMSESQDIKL
Chain of UniProt O60674 (whole entry, looked up): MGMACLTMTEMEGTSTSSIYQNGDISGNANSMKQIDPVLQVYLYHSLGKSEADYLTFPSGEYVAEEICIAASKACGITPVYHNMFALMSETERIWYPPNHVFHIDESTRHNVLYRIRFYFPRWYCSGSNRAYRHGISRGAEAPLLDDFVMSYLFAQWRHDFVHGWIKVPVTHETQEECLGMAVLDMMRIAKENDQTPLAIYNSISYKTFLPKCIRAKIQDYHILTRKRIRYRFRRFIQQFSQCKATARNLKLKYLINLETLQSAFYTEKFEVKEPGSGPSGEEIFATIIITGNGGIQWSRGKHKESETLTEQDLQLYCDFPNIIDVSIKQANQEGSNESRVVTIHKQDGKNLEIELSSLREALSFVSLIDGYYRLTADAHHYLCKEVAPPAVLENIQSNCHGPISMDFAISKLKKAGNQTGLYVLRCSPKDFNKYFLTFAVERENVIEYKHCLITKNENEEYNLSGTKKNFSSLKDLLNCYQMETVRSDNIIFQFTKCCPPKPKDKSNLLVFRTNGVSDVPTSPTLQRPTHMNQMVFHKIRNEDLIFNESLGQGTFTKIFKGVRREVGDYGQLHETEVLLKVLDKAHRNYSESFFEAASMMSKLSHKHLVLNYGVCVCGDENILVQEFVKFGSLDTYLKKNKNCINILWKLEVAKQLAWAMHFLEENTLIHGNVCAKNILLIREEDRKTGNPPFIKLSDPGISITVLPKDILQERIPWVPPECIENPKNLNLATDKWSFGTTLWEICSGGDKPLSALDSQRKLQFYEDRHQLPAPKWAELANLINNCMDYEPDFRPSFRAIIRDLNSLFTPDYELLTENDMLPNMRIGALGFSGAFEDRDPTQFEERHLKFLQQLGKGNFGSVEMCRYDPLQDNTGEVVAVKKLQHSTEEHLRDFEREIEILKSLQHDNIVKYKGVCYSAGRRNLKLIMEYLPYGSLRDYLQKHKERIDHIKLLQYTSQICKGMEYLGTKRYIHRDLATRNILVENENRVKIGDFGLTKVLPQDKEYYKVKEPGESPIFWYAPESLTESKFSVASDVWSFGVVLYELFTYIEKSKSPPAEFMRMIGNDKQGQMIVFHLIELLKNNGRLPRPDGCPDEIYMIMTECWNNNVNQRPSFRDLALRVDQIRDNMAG
Chain of UniProt Q8IWQ3 (whole entry, looked up): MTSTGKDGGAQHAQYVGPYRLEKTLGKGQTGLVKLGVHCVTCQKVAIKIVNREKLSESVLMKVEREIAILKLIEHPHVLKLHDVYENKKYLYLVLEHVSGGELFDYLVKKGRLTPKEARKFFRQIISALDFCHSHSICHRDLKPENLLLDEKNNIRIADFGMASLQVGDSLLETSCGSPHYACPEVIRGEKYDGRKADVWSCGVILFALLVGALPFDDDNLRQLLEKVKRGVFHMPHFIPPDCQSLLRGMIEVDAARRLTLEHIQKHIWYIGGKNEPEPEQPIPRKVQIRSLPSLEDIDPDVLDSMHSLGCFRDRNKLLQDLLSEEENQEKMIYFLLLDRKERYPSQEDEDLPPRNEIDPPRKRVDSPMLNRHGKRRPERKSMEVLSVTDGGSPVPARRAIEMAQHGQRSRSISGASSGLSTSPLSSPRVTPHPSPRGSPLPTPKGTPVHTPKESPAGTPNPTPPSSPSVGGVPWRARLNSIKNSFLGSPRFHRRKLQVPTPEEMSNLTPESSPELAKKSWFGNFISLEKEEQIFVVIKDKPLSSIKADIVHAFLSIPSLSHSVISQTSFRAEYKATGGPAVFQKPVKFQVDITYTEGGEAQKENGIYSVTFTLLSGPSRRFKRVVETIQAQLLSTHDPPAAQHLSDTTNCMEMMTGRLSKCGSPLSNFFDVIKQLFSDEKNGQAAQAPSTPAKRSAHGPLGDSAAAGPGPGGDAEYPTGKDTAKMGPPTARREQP
Chain of UniProt P51812 (whole entry, looked up): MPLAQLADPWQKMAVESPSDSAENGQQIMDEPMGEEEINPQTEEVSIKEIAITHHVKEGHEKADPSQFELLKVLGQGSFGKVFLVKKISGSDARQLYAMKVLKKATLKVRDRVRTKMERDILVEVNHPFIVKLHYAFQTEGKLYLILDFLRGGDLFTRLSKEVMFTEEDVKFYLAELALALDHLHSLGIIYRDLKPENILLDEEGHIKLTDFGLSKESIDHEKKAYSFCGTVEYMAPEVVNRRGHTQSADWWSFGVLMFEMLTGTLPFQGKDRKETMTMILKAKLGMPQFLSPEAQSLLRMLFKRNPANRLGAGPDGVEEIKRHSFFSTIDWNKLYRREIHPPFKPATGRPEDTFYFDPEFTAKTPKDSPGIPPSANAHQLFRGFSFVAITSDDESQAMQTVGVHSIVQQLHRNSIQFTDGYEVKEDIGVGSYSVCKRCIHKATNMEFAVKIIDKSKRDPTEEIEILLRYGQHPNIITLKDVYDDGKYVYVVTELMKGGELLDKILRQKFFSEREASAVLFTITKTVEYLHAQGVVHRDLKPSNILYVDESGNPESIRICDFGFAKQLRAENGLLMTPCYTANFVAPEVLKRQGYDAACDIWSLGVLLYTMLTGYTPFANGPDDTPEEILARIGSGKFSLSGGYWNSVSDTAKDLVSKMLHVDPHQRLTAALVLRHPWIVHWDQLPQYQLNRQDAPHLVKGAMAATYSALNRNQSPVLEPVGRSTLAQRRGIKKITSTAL
Chain of UniProt Q00535 (whole entry, looked up): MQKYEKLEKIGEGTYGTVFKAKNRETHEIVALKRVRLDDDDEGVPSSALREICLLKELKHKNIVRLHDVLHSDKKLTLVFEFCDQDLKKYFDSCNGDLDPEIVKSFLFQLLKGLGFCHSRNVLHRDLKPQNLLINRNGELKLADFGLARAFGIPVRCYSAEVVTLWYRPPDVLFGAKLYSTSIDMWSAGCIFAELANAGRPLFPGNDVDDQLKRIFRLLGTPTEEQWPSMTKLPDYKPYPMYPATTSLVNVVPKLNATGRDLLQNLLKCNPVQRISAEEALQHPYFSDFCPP
Chain of UniProt Q14012 (whole entry, looked up): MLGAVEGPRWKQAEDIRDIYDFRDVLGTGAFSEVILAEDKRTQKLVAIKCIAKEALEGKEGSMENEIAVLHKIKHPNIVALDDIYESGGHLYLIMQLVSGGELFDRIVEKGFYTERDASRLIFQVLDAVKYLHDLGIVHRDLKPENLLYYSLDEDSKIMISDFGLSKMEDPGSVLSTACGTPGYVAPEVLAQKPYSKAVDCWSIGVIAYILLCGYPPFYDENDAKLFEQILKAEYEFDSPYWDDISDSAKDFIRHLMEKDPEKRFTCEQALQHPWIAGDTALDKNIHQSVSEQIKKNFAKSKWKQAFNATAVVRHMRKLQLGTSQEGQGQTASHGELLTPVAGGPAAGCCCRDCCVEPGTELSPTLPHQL

Series 1
Structure (SMILES): COc1cc2ncnc(N3CCN(C(=O)Nc4ccc(Oc5ccccc5)cc4)CC3)c2cc1OC
Effect on: enzyme activity
Mode: inhibitor
Tested at: 0.5 µM
Reference: control
For Cyclin-dependent kinase 5, with p35 (CDK5, Homo sapiens, UniProt Q00535): remaining activity read 99.8%.
Ephrin type-B receptor 3 (EPHB3, Homo sapiens, UniProt P54753) — remaining activity: 89.6%.
It gave 94.6% for remaining activity (Casein kinase I isoform epsilon (CSNK1E, Homo sapiens, UniProt P49674)).
The remaining activity was 87.4% (Muscle, skeletal receptor tyrosine-protein kinase (MUSK, Homo sapiens, UniProt O15146)).
Dual specificity tyrosine-phosphorylation-regulated kinase 1A (DYRK1A, Homo sapiens, UniProt Q13627) — remaining activity: 97.9%.
The remaining activity was 101% (Serine/threonine-protein kinase PAK 4 (PAK4, Homo sapiens, UniProt O96013)).
It gave 99.3% for remaining activity (Tyrosine-protein kinase JAK2 (JAK2, Homo sapiens, UniProt O60674)).
It gave 102% for remaining activity (Serine/threonine-protein kinase pim-1 (PIM1, Homo sapiens, UniProt P11309)).
For Serine/threonine-protein kinase BRSK2 (BRSK2, Homo sapiens, UniProt Q8IWQ3): remaining activity read 94.1%.
It gave 115% for remaining activity (Ribosomal protein S6 kinase alpha-3 (RPS6KA3, Homo sapiens, UniProt P51812)).
Serine/threonine-protein kinase Sgk2 (SGK2, Homo sapiens, UniProt Q9HBY8) — remaining activity: 96.7%.
For Calcium/calmodulin-dependent protein kinase kinase 1 (CAMKK1, Homo sapiens, UniProt Q8N5S9): remaining activity read 92.9%.
It gave 89.4% for remaining activity (Dual specificity protein kinase CLK1 (CLK1, Homo sapiens, UniProt P49759)).
For Calcium/calmodulin-dependent protein kinase type 1 (CAMK1, Homo sapiens, UniProt Q14012): remaining activity read 96.9%.

Series 2
Structure (SMILES): CNC(=O)Nc1ccc2c(c1)CC[C@@]21OC(=O)N(CC(=O)N(Cc2ccc(F)cc2)[C@@H](C)C(F)(F)F)C1=O
Tested at: 1 µM
The remaining binding was 82% (Bone morphogenetic protein receptor type-1B (BMPR1B, Homo sapiens, UniProt O00238); cell-free assay, competition with immobilised ligand).
The remaining binding was 67% (Epidermal growth factor receptor (EGFR, Homo sapiens, UniProt P00533, del746-750); cell-free assay, competition with immobilised ligand).
The remaining binding was 96% (Cyclin-dependent kinase 19 (CDK19, Homo sapiens, UniProt Q9BWU1); competition binding).
The remaining binding was 73% (Serine/threonine-protein kinase MRCK beta (CDC42BPB, Homo sapiens, UniProt Q9Y5S2); cell-free assay, competition with immobilised ligand).
Inhibitor of nuclear factor kappa-B kinase subunit alpha (CHUK, Homo sapiens, UniProt O15111); cell-free assay, competition with immobilised ligand — remaining binding: 92%.
Ribosomal protein S6 kinase alpha-6, C-terminal kinase domain (RPS6KA6, Homo sapiens, UniProt Q9UK32); cell-free assay, competition with immobilised ligand — remaining binding: 84%.
For MAP kinase-interacting serine/threonine-protein kinase 2 (MKNK2, Homo sapiens, UniProt Q9HBH9); cell-free assay, competition with immobilised ligand: remaining binding read 82%.
It gave 58% for remaining binding (Serine/threonine-protein kinase Nek3 (NEK3, Homo sapiens, UniProt P51956); cell-free assay, competition with immobilised ligand).

Series 3
Target: Ras GTPase-activating protein-binding protein 1, full length (G3BP1, Homo sapiens, UniProt Q13283)
Chain of UniProt Q13283 (whole entry, looked up): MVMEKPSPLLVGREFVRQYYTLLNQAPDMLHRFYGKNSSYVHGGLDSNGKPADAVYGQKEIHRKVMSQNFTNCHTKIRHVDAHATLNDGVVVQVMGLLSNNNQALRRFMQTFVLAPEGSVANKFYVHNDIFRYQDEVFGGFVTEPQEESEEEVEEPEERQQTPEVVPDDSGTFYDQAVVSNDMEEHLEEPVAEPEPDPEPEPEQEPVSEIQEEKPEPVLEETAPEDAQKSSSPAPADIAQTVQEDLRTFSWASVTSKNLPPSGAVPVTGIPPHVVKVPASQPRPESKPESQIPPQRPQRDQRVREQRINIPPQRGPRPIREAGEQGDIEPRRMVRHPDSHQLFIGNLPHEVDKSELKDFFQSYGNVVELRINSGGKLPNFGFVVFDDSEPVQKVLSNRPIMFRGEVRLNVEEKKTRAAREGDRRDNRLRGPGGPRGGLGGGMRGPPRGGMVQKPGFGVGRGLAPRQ
Technique: RNA Bind-n-Seq
Form: RNA
Medium: in vitro
Tested at: 200 nM
Notes: whole 134-nt RNA, ends assumed
With: 150 mM LiCl
Reference: input library
Reading: higher = stronger binding
Each molecule: 7-deaza-guanosine replaces G
All sequences stand within: GGGAGUUCUACAGUCCGACGAUC … UGGAAUUCUCGGGUGUCAAGG
`UGUGCUACACAUCGUAUGUACCGAAUCGGGGUUUUUUUGGGGUUUUUUUGGGGAAAAAGGGGAAAGUAUUAUGUUACGCCGUUCGGAUCU` gave a log2 enrichment of 0.838.
For `GCAGGAAGUAAAAACAAAUGGAAAUGCUUCGGAUAGUGGCAGGGGUGGGGGUUGCUAAGGAAAGGGUGGGAUGGGAGUGGGUAAAGAAUU`, the log2 enrichment was 0.06.
The log2 enrichment of `AGUCCUGUGCUACACAUCGUAUGUACCGAAUCGGCCCCCCGGCCCCCCGGCCCCCCGGAAAGUAUUAUGUUACGCCGUUCGGAUCUGCAC` is reported as 0.253.
`GCAGGAAGUAAAAACAAAUGGAAAUGCUUCGGAUAGUGGCAGGGGUGGGGGUUGCUAAGGAAAGGGUGGAAAGGGAGUGGGUAAAGAGUU` has a log2 enrichment of 0.069.
For `GUCCUGUGCUACACAUCGUAUGUACCGAAUCGGGGUUUUUUGGUUUUUUGGUUUUUUGGAAAGUAUUAUGUUACGCCGUUCGGAUCUGCA`, the log2 enrichment was -0.91.
For `AUCAUUUCAUUUUUAUAAUUAUACAUUAGACAUUGGCACUUGUGUAAAACUGUCCCUGCAGAUUGAGCAGGAAGUAAAAACAAAUGGAAA`, the log2 enrichment was -1.31.
For `CUCAAGUCCUGUGCUACACAUCGUAUGUACCGAAUCGGGAGGGUUUGGGUGGGAAAGUAUUAUGUUACGCCGUUCGGAUCUGCACUUCCA`, the log2 enrichment was -0.561.
With `AAGUCCUGUGCUACACAUCGUAUGUACCGAAUCGGGGAAAGGGGAAAGGGAAAGGGAAAGUAUUAUGUUACGCCGUUCGGAUCUGCACUU` the log2 enrichment was 0.448.

Other studies, line by line
`CCOC(=O)[C@@H]1CSCC(=O)N[C@@H](CC)C(=O)N(C)[C@@H](C)C(=O)N[C@H](CC(C)C)C(=O)N2CCC[C@@H]2C(=O)N(CC(C)C)CC(=O)N[C@@H](CC(C)C)C(=O)N(C)[C@H](C)C(=O)N[C@@H](CC(C)C)C(=O)N1C` has a logD of 0.746 (hydrocarbon/water).

Excerpt of the above (series 1):
It gave 115% for remaining activity (Ribosomal protein S6 kinase alpha-3 (RPS6KA3, Homo sapiens, UniProt P51812)).
Serine/threonine-protein kinase Sgk2 (SGK2, Homo sapiens, UniProt Q9HBY8) — remaining activity: 96.7%.
For Calcium/calmodulin-dependent protein kinase kinase 1 (CAMKK1, Homo sapiens, UniProt Q8N5S9): remaining activity read 92.9%.
It gave 89.4% for remaining activity (Dual specificity protein kinase CLK1 (CLK1, Homo sapiens, UniProt P49759)).
